Measurements pooled from the literature.
Compare with care: the assays were run in different laboratories. “And” joins repeats or separate records; there may be more than shown. ± marks the error that the study gave.

SMILES	test	system	setting	how to read	measurement	result
N#[11C]c1ccc(-c2csc(NN=C3CCCC3)n2)cc1	–	C57BL/6 mice, male, muscle	intravenous, 3 MBq, 60 min	–	radioactivity uptake	0.68 ± 0.1 %ID/g
O=C1NC2(CC2)COc2ncc(F)cc2[C@H]2COCCN2c2ccn3ncc1c3n2	–	Sprague-Dawley rat, male, serum	oral, 2.5 mg/kg/day, end of treatment, 4-week subacute toxicity	–	serum urea	4.14 ± 0.84 mmol/L
CC(C)=CCC/C(C)=C\CCn1cc(CC(P(=O)(O)O)P(=O)(O)O)nn1	–	mouse CD-1, bile	intravenous, 0.3 mg/kg, 8 h	–	concentration	5750 ± 2850 ng/mL
C=Cc1c(C)c2cc3nc(c(CC(=O)[O-])c4[n-]c(cc5nc(cc1[n-]2)C(C)=C5CC)c(C)c4C(=O)[O-])C(CCC(=O)[O-])C3C.[Cu+2].[Na+].[Na+].[Na+] (stereo not shown)	–	Wistar rat, female	oral, 1000 mg/kg daily, 28 days	–	serum AST	112 ± 32.9 U/L
CCc1nn(C)c2nc(-c3ccc(C(=O)O)cc3)nc(NCc3ccccc3)c12	–	male CD-1 mouse, plasma	oral, 10 mg/kg, 7 h	–	concentration	303 ng/mL
CSCC[C@H](N)C(=O)N[C@@H](C)C(=O)N[C@@H](Cc1c[nH]c2ccccc12)C(=O)N[C@@H](Cc1c[nH]cn1)C(=O)N[C@@H](CC(=O)O)C(=O)N[C@@H](CC(=O)O)C(=O)N[C@@H](CCC(=O)O)C(=O)N[C@@H](CCC(=O)O)C(=O)N[C@@H](Cc1ccccc1)C(=O)N[C@@H](C)C(=O)N[C@@H](CCCNC(=N)N)C(=O)N[C@@H](CCCNC(=N)N)C(=O)N[C@@H](CCCNC(=N)N)C(=O)N[C@@H](CCCNC(=N)N)C(=O)NCCCCCC(=O)NCCCCC(NC(=O)CCCCCNC(=O)[C@H](CCCNC(=N)N)NC(=O)[C@H](CCCNC(=N)N)NC(=O)[C@H](CCCNC(=N)N)NC(=O)[C@H](CCCNC(=N)N)NC(=O)[C@H](C)NC(=O)[C@H](Cc1ccccc1)NC(=O)[C@H](CCC(=O)O)NC(=O)[C@H](CCC(=O)O)NC(=O)[C@H](CC(=O)O)NC(=O)[C@H](CC(=O)O)NC(=O)[C@H](Cc1c[nH]cn1)NC(=O)[C@H](Cc1c[nH]c2ccccc12)NC(=O)[C@H](C)NC(=O)[C@@H](N)CCSC)C(=O)NCCCCC(NC(=O)C(CCCCNC(=O)CCCCCNC(=O)[C@H](CCCNC(=N)N)NC(=O)[C@H](CCCNC(=N)N)NC(=O)[C@H](CCCNC(=N)N)NC(=O)[C@H](CCCNC(=N)N)NC(=O)[C@H](C)NC(=O)[C@H](Cc1ccccc1)NC(=O)[C@H](CCC(=O)O)NC(=O)[C@H](CCC(=O)O)NC(=O)[C@H](CC(=O)O)NC(=O)[C@H](CC(=O)O)NC(=O)[C@H](Cc1c[nH]cn1)NC(=O)[C@H](Cc1c[nH]c2ccccc12)NC(=O)[C@H](C)NC(=O)[C@@H](N)CCSC)NC(=O)CCCCCNC(=O)[C@H](CCCNC(=N)N)NC(=O)[C@H](CCCNC(=N)N)NC(=O)[C@H](CCCNC(=N)N)NC(=O)[C@H](CCCNC(=N)N)NC(=O)[C@H](C)NC(=O)[C@H](Cc1ccccc1)NC(=O)[C@H](CCC(=O)O)NC(=O)[C@H](CCC(=O)O)NC(=O)[C@H](CC(=O)O)NC(=O)[C@H](CC(=O)O)NC(=O)[C@H](Cc1c[nH]cn1)NC(=O)[C@H](Cc1c[nH]c2ccccc12)NC(=O)[C@H](C)NC(=O)[C@@H](N)CCSC)C(N)=O (stereo partly shown)	–	C57BL/6 mouse female, uterus	dose not given, 6 h	reference: total	tissue distribution	2.05% and 1.21% and 1.31%
CCCCCCCCCCCC(=O)C(C)C(=O)N1CCC[C@H]1C(=O)NC(C)(C)C(=O)NC(C)(C)C(=O)NC(C)(C)C(=O)N[C@](C)(CC)C(=O)NCCC(=O)N[C@@H](C)C(=O)N[C@](C)(CC)C(=O)N[C@@H](C)C(=O)N[C@@H](CC(C)C)C(=O)N[C@](C)(CC)C(=O)NCCC(=O)N[C@@H](C)C(=O)N[C@](C)(CC)C(=O)NCCC(=O)N[C@@H](C)C(=O)NC(C)(C)C(=O)NC(C)(C)C(=O)NC(C)(C)C(=O)N[C@@H](C)C(=O)N[C@@H](CC(=O)O)C(=O)O (stereo partly shown)	LC-MS	50% pooled human serum	40 µM, 300 min, pH 7.5, 37 °C	reference: 0 h	remaining intact peptide	31.9% and 35.7% and 36.5%
COc1cnc2cccc(N3CCc4c(cc(Cn5ccnc5)cc4-c4cn(C)nc4C(F)(F)F)C3=O)c2c1	–	CD-1 mouse	intraperitoneal, 100 mg/kg once daily, day 2, dose-escalation tolerability	reference: day 1	body weight change	2.2%
CC[C@H](C)[C@H](NC(=O)[C@H](CCCCN)NC(=O)CNC(=O)[C@H](CC(C)C)NC(=O)[C@H](Cc1ccccc1)NC(=O)[C@H](CCCCN)NC(=O)[C@H](CO)NC(=O)[C@H](Cc1ccccc1)NC(=O)[C@H](Cc1c[nH]c2ccccc12)NC(=O)[C@H](CCC(N)=O)NC(=O)[C@@H](NC(=O)[C@H](Cc1ccccc1)NC(=O)CCCCCNC(=O)CN1CCN(CC(=O)O)CCN(CC(=O)O)CCN(CC(=O)O)CC1)C(C)C)C(=O)N[C@@H](CCC(=O)O)C(=O)N1CCC[C@H]1C(=O)N[C@@H](CC(=O)O)C(=O)N[C@H](C(=O)N[C@@H](CO)C(=O)N[C@@H](CCC(N)=O)C(=O)N[C@H](C(=O)N[C@@H](CCC(N)=O)C(=O)N[C@@H](CC(=O)O)C(=O)N1CCC[C@H]1C(=O)N[C@@H](CC(N)=O)C(=O)N[C@@H](CC(=O)O)C(=O)N[C@@H](CCC(N)=O)C(=O)N[C@@H](Cc1ccc(O)cc1)C(=O)N[C@@H](CCC(=O)O)C(=O)N1CCC[C@H]1C(=O)N[C@@H](Cc1ccccc1)C(=O)O)C(C)C)C(C)C [copper-64 labelled]	–	C57BL/6 male mouse, tumour-naive, bone	1 h	–	tissue uptake	1.45 ± 0.3 %ID/g
CCCCCCCCCCCCCCCC(=O)N[C@@H](CCC(=O)NCCOCCOCCC(=O)NCCOCCOCCC(=O)NCCCC[C@H](NC(=O)[C@H](CC(=O)O)NC(=O)[C@H](CC(C)C)NC(=O)[C@H](Cc1ccc(O)cc1)NC(=O)[C@H](CCCCN)NC(=O)[C@H](CO)NC(=O)[C@H](Cc1ccc(O)cc1)NC(=O)[C@H](CC(=O)O)NC(=O)[C@H](CO)NC(=O)[C@@H](NC(=O)[C@H](Cc1ccccc1)NC(=O)[C@@H](NC(=O)CNC(=O)[C@H](CCC(N)=O)NC(=O)[C@@H](CO)NC(=O)[C@@H](N)Cc1c[nH]cn1)[C@@H](C)O)[C@@H](C)O)C(=O)N[C@@H](CCCNC(=N)N)C(=O)N[C@@H](CCCNC(=N)N)C(=O)N[C@@H](C)C(=O)N[C@@H](CCC(N)=O)C(=O)N[C@@H](CC(=O)O)C(=O)N[C@@H](Cc1ccccc1)C(=O)N[C@H](C(=O)N[C@@H](CCC(N)=O)C(=O)N[C@@H](Cc1c[nH]c2ccccc12)C(=O)N[C@@H](CC(C)C)C(=O)N[C@@H](CC(C)C)C(=O)N[C@@H](CC(N)=O)C(=O)N[C@H](C(=O)NCC(=O)NCC(=O)N1CCC[C@H]1C(=O)N[C@@H](CO)C(=O)N[C@@H](CO)C(=O)NCC(=O)N[C@@H](C)C(=O)N1CCC[C@H]1C(=O)N1CCC[C@H]1C(=O)N1CCC[C@H]1C(=O)N[C@@H](CO)C(N)=O)[C@@H](C)O)C(C)C)C(=O)O	–	rhesus monkey, female	subcutaneous, 20 µg/kg, day 1, median	–	Tmax	1 h
CC[C@H](C)[C@H](NC(=O)[C@H](C)NC(=O)CNC(=O)[C@H](CCCCN)NC(=O)[C@@H](NC(=O)[C@H](CC(C)C)NC(=O)[C@H](C)NC(=O)CNC(=O)[C@H](CC(C)C)NC(=O)[C@@H](N)Cc1ccccc1)[C@@H](C)CC)C(=O)N[C@@H](Cc1c[nH]cn1)C(=O)NCC(=O)NCC(=O)N[C@@H](CCCNC(=N)N)C(=O)N[C@@H](Cc1ccccc1)C(=O)N[C@H](C(=O)N[C@@H](Cc1c[nH]cn1)C(=O)NCC(=O)N[C@@H](CCSC)C(=O)N[C@H](C(=O)N[C@@H](CCC(N)=O)C(=O)N[C@@H](CC(N)=O)C(=O)N[C@@H](Cc1c[nH]cn1)C(=O)N[C@@H](Cc1c[nH]cn1)C(N)=O)[C@@H](C)CC)[C@@H](C)CC	–	zebrafish embryos 4 hpf, E3 medium	24 h	–	chronic toxic concentration	1 µM
O=C(c1cc(Cc2n[nH]c(=O)c3ccccc23)ccc1F)N1CC(CNC2CC2)C1	–	athymic nude mouse, sample A PDX, tumour	oral, 12.5 mg/kg, 24 h	–	tumour concentration	> 100 ng/g
CC[C@H](C)[C@H](NC(=O)[C@H](Cc1c[nH]c2ccccc12)NC(=O)[C@H](Cc1ccc(O)cc1)NC(=O)[C@H](CCCCN)NC(=O)[C@H](CC(C)C)NC(=O)[C@H](CO)NC(=O)[C@@H](N)Cc1ccccc1)C(=O)N[C@@H](CCCNC(=N)N)C(=O)N[C@@H](Cc1ccc(O)cc1)C(=O)N[C@@H](CCCCN)C(=O)N[C@@H](CCCNC(=N)N)C(=O)N[C@@H](CCC(N)=O)C(=O)NCC(=O)N[C@@H](C)C(=O)N[C@@H](C)C(=O)N[C@@H](CCCNC(=N)N)C(=O)N[C@@H](Cc1ccccc1)C(N)=O	reversed-phase UPLC	C18 column, TFA	–	–	elution acetonitrile content	43.7%
Cn1nc(NS(C)(=O)=O)c2c(Cl)ccc(-n3c([C@H](Cc4cc(F)cc(F)c4)NC(=O)Cn4nc(C(F)F)c5c4C(F)(F)[C@@H]4C[C@H]54)nc4nc(OCCC(F)(F)F)ccc4c3=O)c21	–	human, plasma	oral, 200 mg single dose, tablet, geometric mean	–	AUC(0-inf)	6390 ng·h/mL
CCN(CC)CCOc1ccc(-c2nnn(Cc3ccc(OC)cc3)c2N)cc1	–	dog liver microsomes	concentration not given, time not given	–	remaining compound	36.1%
CC(C)[C@H]1NC(=O)[C@H](Cc2ccccc2)NC(=O)[C@@H](C(C)C)NC(=O)[C@@H](C)NC(=O)[C@H](CO)NC(=O)[C@@H](Cc2c(-c3ccc(-c4ccc5ccccc5c4)cc3)[nH]c3ccccc23)NC(=O)[C@@H](CO)NC1=O	–	female Sprague-Dawley rat, plasma	intraperitoneal, 20 mg/kg, single dose	–	AUC(0-t)	3820 ng·h/mL
